Results from different studies.

SMILES | organism | assay | system | conditions | quantity | value
C[C@H](NC(=O)[C@H](CCCNC(=N)N)NC(=O)[C@H](Cc1c[nH]c2ccccc12)NC(=O)[C@H](CCCNC(=N)N)NC(=O)[C@H](Cc1c[nH]c2ccccc12)NC(=O)[C@H](Cc1c[nH]c2ccccc12)NC(=O)[C@H](Cc1c[nH]c2ccccc12)NC(=O)[C@H](CCCNC(=N)N)NC(=O)[C@H](Cc1c[nH]c2ccccc12)NC(=O)[C@H](CCCNC(=N)N)NC(=O)CN)C(N)=O | Candida albicans | broth microdilution | CGMCC 2.209, RPMI 1640-MOPS | 48 h, 30 °C, added: NH4Cl 6 µM | MIC | 4 µM
CCCCCCCNC(=O)CP(=O)(O)O | Streptococcus pneumoniae |  |  |  | MIC | > 200 µg/mL
CC1(C)SC2C(NC(=O)C(NC(=O)C3=C(O)CN(c4ccccc4)C3=O)c3ccccc3)C(=O)N2C1C(=O)O (centres unmarked) | Escherichia coli | broth microdilution | Keio mutant JW2142-1 |  | MIC | 200 µg/mL
Cc1ccccc1C(=O)NN=Cc1ccc(O)c(Br)c1 | Cryptococcus neoformans |  |  | compound alone, added: caspofungin | MIC | 1 µg/mL
CC1(C(=O)O)C2CCC(O2)C1(C)C(=O)O (centres unmarked) | Plasmodium falciparum |  | 7G8 |  | IC50 | 3.98 µM
N=C(N)c1ccc(OCc2cccc(COc3ccc(C(=N)N)cc3)c2)cc1 | Escherichia coli |  | mcr-1 | 20 h, compound alone | MIC | > 200 µg/mL
CC(C)CC1NC(=O)C(C(=O)NC(C(=O)NC2C(=O)N3C2SC(C)(C)C3C(=O)O)c2ccccc2)=C1O (centres unmarked) | Escherichia coli | broth microdilution | Keio mutant JW5086-3 | 18 h, ferrienterobactin permease gene | MIC | 25 µg/mL
[O-][N+]1=C(c2ccc(Cl)cc2)C2=NCCN2c2ccccc21 | Clostridioides difficile |  |  |  | MIC | 0.125 to 0.25 µg/mL
CC[C@H](C)[C@H](NC(=O)CN)C(=O)NCC(=O)N[C@@H](C)C(=O)N[C@H](C(=O)N[C@@H](CC(C)C)C(=O)N[C@@H](CCCCN)C(=O)N[C@H](C(=O)N[C@@H](CC(C)C)C(=O)N[C@H](C(=O)N[C@H](C(=O)NCC(=O)N[C@@H](CC(C)C)C(=O)N1CCC[C@H]1C(=O)N[C@@H](C)C(=O)N[C@@H](CC(C)C)C(=O)N[C@H](C(=O)N[C@@H](CO)C(=O)N[C@@H](Cc1c[nH]c2ccccc12)C(=O)N[C@H](C(=O)N[C@@H](CCCCN)C(=O)N[C@@H](CCCNC(=N)N)C(=O)N[C@@H](CCCCN)C(=O)N[C@@H](CCCNC(=N)N)C(=O)N[C@@H](CCC(N)=O)C(=O)N[C@@H](CCC(N)=O)C(N)=O)[C@@H](C)CC)[C@@H](C)CC)[C@@H](C)O)[C@@H](C)O)C(C)C)C(C)C | Candida albicans | broth microdilution | SP3902, RPMI 1640-MOPS | 48 h, 30 °C | MIC | 2 µM
C=CCc1ccccc1OCC(O)CNC(C)C (centres unmarked) | Plasmodium falciparum |  | 7G8 |  | IC50 | 3.16 µM
CC[C@H](C)[C@H](N)C(=O)N[C@@H](CCCNC(=N)N)C(=O)N[C@H](C(=O)N[C@@H](Cc1c[nH]c2ccccc12)C(=O)N[C@@H](Cc1ccccc1)C(=O)N[C@H](C(=O)N[C@@H](CCCCN)C(=O)N[C@H](C(=O)N[C@@H](CCCNC(=N)N)C(=O)N[C@@H](CCCCN)C(=O)N[C@@H](Cc1c[nH]c2ccccc12)C(=O)N[C@@H](CCCCN)C(=O)N[C@@H](C)C(=O)N[C@H](C(=O)N[C@@H](Cc1ccc(O)cc1)C(=O)N[C@@H](Cc1c[nH]cn1)C(=O)N[C@H](C(N)=O)[C@@H](C)O)[C@@H](C)CC)C(C)C)[C@@H](C)CC)C(C)C | Salmonella typhimurium | broth dilution | SL1344 |  | MIC | 100 µM
CC1(C)SC2C(NC(=O)C(NC(=O)C3=C(O)C4(CC4)NC3=O)c3ccccc3)C(=O)N2C1C(=O)O (centres unmarked) | Escherichia coli | broth microdilution | isolate IU, CTX-M-14, TEM-1 | added: clavulanic acid 6 µg/mL | MIC | > 200 µg/mL
CC(C)[C@H](NC(=O)[C@H](CCCNC(=N)N)NC(=O)[C@H](Cc1c[nH]c2ccccc12)NC(=O)[C@H](CCCNC(=N)N)NC(=O)[C@H](Cc1c[nH]c2ccccc12)NC(=O)[C@H](Cc1c[nH]c2ccccc12)NC(=O)[C@H](Cc1c[nH]c2ccccc12)NC(=O)[C@H](CCCNC(=N)N)NC(=O)[C@H](Cc1c[nH]c2ccccc12)NC(=O)[C@H](CCCNC(=N)N)NC(=O)CN)C(N)=O | Candida albicans | broth microdilution | 58288, RPMI 1640-MOPS | 48 h, 30 °C | MIC | 8 µM
N=C(N)c1cccc(OCc2ccc(COc3cccc(C(=N)N)c3)cc2)c1 | Escherichia coli |  | BW25113 mcr-1 | in combination, checkerboard, added: rifampicin | MIC | 50 µg/mL
CC1(C)SC2C(NC(=O)C(NC(=O)C3=C(O)C(Cc4ccco4)NC3=O)c3ccccc3)C(=O)N2C1C(=O)O (centres unmarked) | Escherichia coli | broth microdilution | isolate IU, CTX-M-14, TEM-1 | added: clavulanic acid 6 µg/mL | MIC | 50 µg/mL
C[C@H](NC(=O)[C@H](CCCNC(=N)N)NC(=O)[C@H](Cc1c[nH]c2ccccc12)NC(=O)[C@H](CCCNC(=N)N)NC(=O)[C@H](Cc1c[nH]c2ccccc12)NC(=O)[C@H](Cc1c[nH]c2ccccc12)NC(=O)[C@H](Cc1c[nH]c2ccccc12)NC(=O)[C@H](CCCNC(=N)N)NC(=O)[C@H](Cc1c[nH]c2ccccc12)NC(=O)[C@@H](N)CCCNC(=N)N)C(N)=O | Candida albicans | broth microdilution | 14936, RPMI 1640-MOPS | 48 h, 30 °C | MIC | 4 µM
CC1(C)SC2C(NC(=O)C(NC(=O)C3=C(O)C(Cc4ccc(O)cc4)NC3=O)c3ccccc3)C(=O)N2C1C(=O)O (centres unmarked) | Escherichia coli | broth microdilution | ATCC 35218, low-level TEM-1 | no clavulanic acid | MIC | > 200 µg/mL
CC(C)C[C@@H]1NC(=O)[C@H](Cc2ccccc2)NC(=O)[C@H](Cc2ccc(O)cc2)NC(=O)[C@H](CC(C)C)NC(=O)[C@H](CCC(=O)O)NC(=O)[C@H](Cc2ccccc2)NC(=O)[C@H](CCCNC(=N)N)NC(=O)[C@H](CCC(N)=O)NC(=O)[C@H](CC(C)C)NC(=O)[C@H](CC(=O)O)NC(=O)[C@@H]2CCCN2C(=O)[C@H](CCCCN)NC(=O)[C@H](C(C)C)NC(=O)[C@H](CC(N)=O)NC(=O)[C@H](Cc2ccc(O)cc2)NC(=O)[C@H]([C@@H](C)O)NC(=O)[C@@H](N)CSSC[C@@H](C(=O)O)NC(=O)[C@H]([C@@H](C)O)NC(=O)[C@H](C(C)C)NC(=O)[C@H]([C@@H](C)O)NC(=O)CNC1=O | Aeromonas hydrophila | broth dilution |  | 24 h | MIC | > 40 µM
CC1(C)SC2C(NC(=O)C(NC(=O)C3=C(O)C4CCCN4C3=O)c3ccccc3)C(=O)N2C1C(=O)O (centres unmarked) | Escherichia coli | broth microdilution | Keio mutant JW0146-2 | 18 h, ferric hydroxamate uptake gene | MIC | 25 µg/mL
O=C(CCCCc1ccccc1)CP(=O)(O)O | Streptococcus pneumoniae |  |  |  | MIC | > 200 µg/mL

For quick reference, copied from above:
SMILES | organism | assay | system | conditions | quantity | value
C[C@H](NC(=O)[C@H](CCCNC(=N)N)NC(=O)[C@H](Cc1c[nH]c2ccccc12)NC(=O)[C@H](CCCNC(=N)N)NC(=O)[C@H](Cc1c[nH]c2ccccc12)NC(=O)[C@H](Cc1c[nH]c2ccccc12)NC(=O)[C@H](Cc1c[nH]c2ccccc12)NC(=O)[C@H](CCCNC(=N)N)NC(=O)[C@H](Cc1c[nH]c2ccccc12)NC(=O)[C@@H](N)CCCNC(=N)N)C(N)=O | Candida albicans | broth microdilution | 14936, RPMI 1640-MOPS | 48 h, 30 °C | MIC | 4 µM
CC1(C)SC2C(NC(=O)C(NC(=O)C3=C(O)C(Cc4ccc(O)cc4)NC3=O)c3ccccc3)C(=O)N2C1C(=O)O (centres unmarked) | Escherichia coli | broth microdilution | ATCC 35218, low-level TEM-1 | no clavulanic acid | MIC | > 200 µg/mL
CC(C)C[C@@H]1NC(=O)[C@H](Cc2ccccc2)NC(=O)[C@H](Cc2ccc(O)cc2)NC(=O)[C@H](CC(C)C)NC(=O)[C@H](CCC(=O)O)NC(=O)[C@H](Cc2ccccc2)NC(=O)[C@H](CCCNC(=N)N)NC(=O)[C@H](CCC(N)=O)NC(=O)[C@H](CC(C)C)NC(=O)[C@H](CC(=O)O)NC(=O)[C@@H]2CCCN2C(=O)[C@H](CCCCN)NC(=O)[C@H](C(C)C)NC(=O)[C@H](CC(N)=O)NC(=O)[C@H](Cc2ccc(O)cc2)NC(=O)[C@H]([C@@H](C)O)NC(=O)[C@@H](N)CSSC[C@@H](C(=O)O)NC(=O)[C@H]([C@@H](C)O)NC(=O)[C@H](C(C)C)NC(=O)[C@H]([C@@H](C)O)NC(=O)CNC1=O | Aeromonas hydrophila | broth dilution |  | 24 h | MIC | > 40 µM
